Experimental data pooled from the literature.
Numbered parts are unrelated; each lists some results of a single study. Several values in a cell are separate wells, animals, samples, runs or records.
Chain of UniProt O14757 (whole entry, looked up): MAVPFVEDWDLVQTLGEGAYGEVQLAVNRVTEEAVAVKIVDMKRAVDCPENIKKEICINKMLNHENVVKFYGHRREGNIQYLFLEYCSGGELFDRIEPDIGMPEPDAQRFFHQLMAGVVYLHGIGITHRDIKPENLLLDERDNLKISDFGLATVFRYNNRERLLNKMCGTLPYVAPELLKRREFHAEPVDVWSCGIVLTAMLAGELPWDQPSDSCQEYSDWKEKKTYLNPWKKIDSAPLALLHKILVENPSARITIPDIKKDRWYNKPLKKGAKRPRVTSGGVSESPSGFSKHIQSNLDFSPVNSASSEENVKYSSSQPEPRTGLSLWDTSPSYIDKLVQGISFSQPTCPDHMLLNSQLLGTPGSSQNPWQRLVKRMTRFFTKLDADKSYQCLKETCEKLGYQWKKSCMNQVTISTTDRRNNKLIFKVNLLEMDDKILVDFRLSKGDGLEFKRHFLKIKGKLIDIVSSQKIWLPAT
Chain of UniProt Q9UPE1 (whole entry, looked up): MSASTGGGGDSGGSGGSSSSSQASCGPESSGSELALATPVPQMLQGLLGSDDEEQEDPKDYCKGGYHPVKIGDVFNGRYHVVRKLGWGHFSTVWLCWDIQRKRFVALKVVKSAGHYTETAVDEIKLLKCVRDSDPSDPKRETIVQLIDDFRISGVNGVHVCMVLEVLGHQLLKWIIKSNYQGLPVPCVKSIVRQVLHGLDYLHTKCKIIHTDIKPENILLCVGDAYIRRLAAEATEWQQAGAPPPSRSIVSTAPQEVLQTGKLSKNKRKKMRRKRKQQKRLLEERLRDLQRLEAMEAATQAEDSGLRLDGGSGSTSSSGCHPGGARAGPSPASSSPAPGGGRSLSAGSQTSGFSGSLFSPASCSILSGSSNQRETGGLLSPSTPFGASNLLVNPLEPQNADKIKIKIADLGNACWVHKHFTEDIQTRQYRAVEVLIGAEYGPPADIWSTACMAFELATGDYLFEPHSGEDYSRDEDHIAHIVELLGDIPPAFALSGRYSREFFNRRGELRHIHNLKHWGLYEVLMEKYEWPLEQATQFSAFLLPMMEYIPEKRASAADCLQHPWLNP
Chain of UniProt Q99640 (whole entry, looked up): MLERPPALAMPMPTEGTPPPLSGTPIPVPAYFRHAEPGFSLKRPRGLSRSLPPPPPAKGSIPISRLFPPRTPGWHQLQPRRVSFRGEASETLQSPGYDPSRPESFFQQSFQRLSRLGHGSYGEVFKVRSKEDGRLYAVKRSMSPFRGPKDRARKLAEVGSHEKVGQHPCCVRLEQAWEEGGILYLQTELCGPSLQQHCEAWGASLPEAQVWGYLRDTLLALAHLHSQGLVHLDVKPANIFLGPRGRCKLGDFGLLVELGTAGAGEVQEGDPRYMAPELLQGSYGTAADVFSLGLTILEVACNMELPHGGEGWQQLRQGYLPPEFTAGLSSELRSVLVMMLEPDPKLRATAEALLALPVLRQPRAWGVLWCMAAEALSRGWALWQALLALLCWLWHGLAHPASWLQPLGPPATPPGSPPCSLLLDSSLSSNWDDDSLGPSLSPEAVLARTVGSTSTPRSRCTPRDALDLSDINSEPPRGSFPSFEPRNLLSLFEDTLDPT
Chain of UniProt Q13976 (whole entry, looked up): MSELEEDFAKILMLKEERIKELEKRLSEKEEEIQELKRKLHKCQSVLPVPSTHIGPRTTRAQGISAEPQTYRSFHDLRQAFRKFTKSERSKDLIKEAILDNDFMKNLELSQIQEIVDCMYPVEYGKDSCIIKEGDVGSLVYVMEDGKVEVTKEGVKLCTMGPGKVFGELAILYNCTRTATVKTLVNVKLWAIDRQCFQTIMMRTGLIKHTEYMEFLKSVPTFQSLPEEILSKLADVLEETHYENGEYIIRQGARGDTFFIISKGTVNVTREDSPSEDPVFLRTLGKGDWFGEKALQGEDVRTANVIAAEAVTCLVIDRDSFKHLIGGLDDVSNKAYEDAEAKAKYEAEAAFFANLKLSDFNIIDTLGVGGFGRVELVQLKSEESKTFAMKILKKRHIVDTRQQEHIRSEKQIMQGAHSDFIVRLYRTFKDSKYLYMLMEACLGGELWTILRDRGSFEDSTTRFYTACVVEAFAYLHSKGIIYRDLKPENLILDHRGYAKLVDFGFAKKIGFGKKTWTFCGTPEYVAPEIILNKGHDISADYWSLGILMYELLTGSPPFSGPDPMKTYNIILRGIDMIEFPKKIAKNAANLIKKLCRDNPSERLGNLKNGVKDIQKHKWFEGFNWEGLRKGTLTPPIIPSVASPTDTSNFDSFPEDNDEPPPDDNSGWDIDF
Chain of UniProt P42338 (whole entry, looked up): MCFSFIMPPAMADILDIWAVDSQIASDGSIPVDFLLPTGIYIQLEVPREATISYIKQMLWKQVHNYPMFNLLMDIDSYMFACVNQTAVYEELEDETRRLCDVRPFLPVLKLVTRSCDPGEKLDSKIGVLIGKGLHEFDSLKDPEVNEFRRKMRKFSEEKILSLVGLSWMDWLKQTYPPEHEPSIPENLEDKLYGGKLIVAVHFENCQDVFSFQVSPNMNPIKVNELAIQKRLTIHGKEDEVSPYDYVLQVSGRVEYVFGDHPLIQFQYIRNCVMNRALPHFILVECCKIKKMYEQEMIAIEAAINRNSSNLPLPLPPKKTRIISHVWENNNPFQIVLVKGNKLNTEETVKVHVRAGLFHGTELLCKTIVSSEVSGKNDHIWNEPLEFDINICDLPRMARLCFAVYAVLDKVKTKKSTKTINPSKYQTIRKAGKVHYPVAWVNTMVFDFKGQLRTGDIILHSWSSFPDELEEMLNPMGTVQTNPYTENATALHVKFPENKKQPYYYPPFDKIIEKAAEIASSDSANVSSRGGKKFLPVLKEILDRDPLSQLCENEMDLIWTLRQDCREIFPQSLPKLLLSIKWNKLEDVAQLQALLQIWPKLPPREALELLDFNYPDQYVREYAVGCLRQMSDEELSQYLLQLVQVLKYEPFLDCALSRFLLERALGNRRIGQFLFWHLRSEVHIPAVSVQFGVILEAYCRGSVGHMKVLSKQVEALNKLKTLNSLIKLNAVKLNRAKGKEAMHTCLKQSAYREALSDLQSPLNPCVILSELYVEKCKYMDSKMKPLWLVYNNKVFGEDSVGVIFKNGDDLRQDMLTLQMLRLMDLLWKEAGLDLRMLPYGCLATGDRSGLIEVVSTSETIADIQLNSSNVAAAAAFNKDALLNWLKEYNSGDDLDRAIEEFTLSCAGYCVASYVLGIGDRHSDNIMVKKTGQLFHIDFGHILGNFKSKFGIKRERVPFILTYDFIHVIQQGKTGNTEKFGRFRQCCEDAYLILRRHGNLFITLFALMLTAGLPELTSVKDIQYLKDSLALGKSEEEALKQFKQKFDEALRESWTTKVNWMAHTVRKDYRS
Chain of UniProt Q8TDR2 (whole entry, looked up): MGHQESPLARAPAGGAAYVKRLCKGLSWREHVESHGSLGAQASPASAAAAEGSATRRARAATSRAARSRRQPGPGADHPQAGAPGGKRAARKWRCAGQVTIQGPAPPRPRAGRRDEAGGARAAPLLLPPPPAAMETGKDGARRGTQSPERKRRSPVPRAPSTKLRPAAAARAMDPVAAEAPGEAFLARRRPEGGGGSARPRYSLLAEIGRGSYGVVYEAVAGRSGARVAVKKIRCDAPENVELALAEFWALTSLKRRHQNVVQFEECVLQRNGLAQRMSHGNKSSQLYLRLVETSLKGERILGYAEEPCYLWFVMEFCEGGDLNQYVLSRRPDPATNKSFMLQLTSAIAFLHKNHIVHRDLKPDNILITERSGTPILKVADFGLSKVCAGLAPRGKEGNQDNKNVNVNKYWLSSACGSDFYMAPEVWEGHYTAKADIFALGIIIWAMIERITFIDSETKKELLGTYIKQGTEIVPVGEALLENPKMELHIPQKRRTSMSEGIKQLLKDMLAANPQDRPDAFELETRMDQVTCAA
Chain of UniProt Q86SM8 (whole entry, looked up): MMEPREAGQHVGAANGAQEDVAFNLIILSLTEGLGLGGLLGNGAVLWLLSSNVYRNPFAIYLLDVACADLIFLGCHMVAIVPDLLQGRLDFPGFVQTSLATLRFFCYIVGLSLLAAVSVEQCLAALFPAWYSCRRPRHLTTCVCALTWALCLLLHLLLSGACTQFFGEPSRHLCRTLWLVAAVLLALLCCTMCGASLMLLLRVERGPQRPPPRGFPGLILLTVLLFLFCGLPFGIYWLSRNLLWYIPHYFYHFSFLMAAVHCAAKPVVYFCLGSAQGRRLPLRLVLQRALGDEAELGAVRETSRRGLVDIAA
Chain of UniProt P11802 (whole entry, looked up): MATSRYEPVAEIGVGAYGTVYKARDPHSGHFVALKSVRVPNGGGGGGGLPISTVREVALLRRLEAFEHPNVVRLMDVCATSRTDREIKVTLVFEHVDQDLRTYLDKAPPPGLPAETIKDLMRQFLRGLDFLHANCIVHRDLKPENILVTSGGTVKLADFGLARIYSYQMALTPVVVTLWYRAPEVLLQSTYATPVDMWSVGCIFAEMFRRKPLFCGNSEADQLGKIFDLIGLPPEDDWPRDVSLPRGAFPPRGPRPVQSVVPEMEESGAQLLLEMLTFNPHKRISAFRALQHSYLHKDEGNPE

Study 1
Target: Calcium/calmodulin-dependent protein kinase type II subunit alpha (CAMK2A, Homo sapiens, UniProt Q9UQM7)
Chain of UniProt Q9UQM7 (whole entry, looked up): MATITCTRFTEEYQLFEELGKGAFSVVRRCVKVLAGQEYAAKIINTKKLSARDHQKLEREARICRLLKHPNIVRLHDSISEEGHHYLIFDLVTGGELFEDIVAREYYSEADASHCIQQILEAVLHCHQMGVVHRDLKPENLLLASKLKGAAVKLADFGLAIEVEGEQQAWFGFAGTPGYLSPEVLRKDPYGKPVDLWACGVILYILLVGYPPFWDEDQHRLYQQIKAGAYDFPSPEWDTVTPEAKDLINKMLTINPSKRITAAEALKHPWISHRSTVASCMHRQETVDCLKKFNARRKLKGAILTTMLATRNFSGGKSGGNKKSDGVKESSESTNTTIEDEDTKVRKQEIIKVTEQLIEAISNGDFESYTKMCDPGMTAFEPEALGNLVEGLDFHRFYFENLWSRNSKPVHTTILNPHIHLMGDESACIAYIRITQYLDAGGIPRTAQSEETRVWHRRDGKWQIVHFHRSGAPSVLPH
Effect on: enzyme activity
Action: inhibitor
Tested at: 10 µM
| Structure (SMILES) | inhibition [%] |
| --- | --- |
| C[C@@H]1O[C@@H](O[C@H]2[C@H](O[C@H]3CC[C@@]4(C)[C@@H](CC[C@]5(C)[C@@H]4CC=C4[C@@H]6CC(C)(C)CC[C@]6(C(=O)O)CC[C@]45C)[C@]3(C)CO)OC[C@H](O)[C@@H]2O)[C@H](O)[C@H](O)[C@H]1O | 12 |
| O=C(/C=C/c1ccc(O)c(O)c1)c1ccc(O)cc1O | 24 |
| NC(=O)c1ncn([C@@H]2O[C@H](CO)[C@@H](O)[C@H]2O)n1 | 0 |
| CNc1ncc(-c2ccc3c(=O)c(C(=O)O)cn(C4CC4)c3c2C)cc1C | -12 |
| CCCCCCCCCC(C)=O | 6 |
| O=c1cc(-c2ccc(O)cc2)oc2cccc(O)c12 | -1 |
| C[C@@]12C=Cc3occc3[C@H]1CC[C@@]13C[C@@H](CC[C@H]12)[C@@](O)(CO)C3 | -57 |

Study 2
SMILES: CC(C)C[C@@H]1NC(=O)[C@@H](N(C)C(=O)[C@H](CC2CCC2)NC(=O)[C@@H]2C[C@@H](F)CN2C(=O)C2(C(F)(F)F)CC(F)(F)C2)CCCCNC(=O)C2(CC2)NC(=O)[C@H](Cc2cc(Cl)ccc2Cl)N(C)C1=O
Technique: PI flow cytometry
Time: 24 h
| cell line | conditions | G1 phase cells |
| --- | --- | --- |
| HCC4006 | 2000 nM | 35.1% and 55.9% and 40.3% |
| NCI-H82 | 20 nM | 43.2% and 50.9% and 41% |
| NCI-H1299 | 200 nM | 58.6% and 61.3% and 62.6% |
| A549 | 20 nM | 59.5% and 59.2% and 66.8% |
| A549 | 200 nM | 61.5% and 57.7% and 61.3% |
| NCI-H82 | 2000 nM | 35.4% and 31% |
| NCI-H1299 | 20 nM | 65.2% and 67.3% and 61.9% |

Study 3
Structure (SMILES): Cc1nc(Cc2cccc(C(F)(F)F)c2)sc1-c1ccc(C(N)=O)nc1
Effect on: cell-free assay
Technique: competition with immobilised ligand
Tested at: 1 µM
| target | remaining binding [%] |
| --- | --- |
| PRKG1 (Homo sapiens, UniProt Q13976) | 87 |
| CDK4 (Homo sapiens, UniProt P11802) | 99 |
| PIK3CA (Homo sapiens, UniProt P42336, H1047Y) | 100 |
| Tyrosine-protein kinase ABL1, non-phosphorylated (ABL1, Homo sapiens, UniProt P00519) | 95 |
| Tyrosine-protein kinase ABL1, non-phosphorylated (ABL1, Homo sapiens, UniProt P00519, H396P) | 87 |
| EPHA2 (Homo sapiens, UniProt P29317) | 68 |
| CIT (Homo sapiens, UniProt O14578) | 65 |
| MAP4K5 (Homo sapiens, UniProt Q9Y4K4) | 87 |
| MAP3K5 (Homo sapiens, UniProt Q99683) | 100 |
| MYLK (Homo sapiens, UniProt Q15746) | 95 |
| CHEK1 (Homo sapiens, UniProt O14757) | 100 |
| PIK3CB (Homo sapiens, UniProt P42338) | 83 |
| ROCK1 (Homo sapiens, UniProt Q13464) | 69 |
| PNCK (Homo sapiens, UniProt Q6P2M8) | 100 |
| DAPK1 (Homo sapiens, UniProt P53355) | 100 |
| STK35 (Homo sapiens, UniProt Q8TDR2) | 100 |
| FLT4 (Homo sapiens, UniProt P35916) | 100 |
| PRKACA (Homo sapiens, UniProt P17612) | 75 |
| PTK2 (Homo sapiens, UniProt Q05397) | 95 |
| PKMYT1 (Homo sapiens, UniProt Q99640) | 67 |
| CAMK2A (Homo sapiens, UniProt Q9UQM7) | 91 |
| SRPK3 (Homo sapiens, UniProt Q9UPE1) | 100 |
| Tyrosine-protein kinase ABL1, phosphorylated (ABL1, Homo sapiens, UniProt P00519, M351T) | 100 |
| EGFR (Homo sapiens, UniProt P00533, G719S) | 67 |
| CDC42BPA (Homo sapiens, UniProt Q5VT25) | 81 |

Study 4
Technique: PRP chromatography estimate
Matrix: 1,9-decadiene/PBS
pH: 7.4
| Structure (SMILES) | logD |
| --- | --- |
| CCC[C@@H]1NC(=O)CSC[C@@H](C(=O)OCC)N(C)C(=O)[C@H](CC(C)C)NC(=O)[C@H](C)N(C)C(=O)[C@H](CC(C)C)NC(=O)[C@H](C)N(C)C(=O)[C@@H](C)N(C)C(=O)[C@@H](CC(C)C)NC(=O)CN(C)C1=O | 0.0322 |
| CC(C)C[C@@H]1NC(=O)[C@H](CC(C)C)NC(=O)[C@H](CC(C)C)NC(=O)[C@H](C(C)C)NC(=O)[C@H](C(C)C)NC(=O)[C@H](C)NC(=O)[C@H](C)NC1=O | -1.28 |
| CC(C)C[C@@H]1NC(=O)[C@H](Cc2cscn2)NC(=O)[C@H](C)NC(=O)[C@H](CCC(=O)N2CCCC2)NC(=O)[C@@H](CCC(=O)N2CCCC2)NC(=O)[C@H](CC(C)C)NC(=O)[C@@H](CC(C)C)NC1=O | -2.7 |
| CCC[C@@H]1NC(=O)CSC[C@@H](C(=O)OCC)N(C)C(=O)[C@H](CC(C)C)NC(=O)[C@@H](C)N(C)C(=O)[C@H](CC(C)C)NC(=O)[C@H](C)N(C)C(=O)[C@@H]2CCCN2C(=O)[C@@H](CC(C)C)NC(=O)CN(C)C1=O | -0.532 |
| CC(C)C[C@@H]1NC(=O)[C@H](C)NC(=O)[C@H](Cc2cscn2)NC(=O)[C@H](CC(C)C)NC(=O)[C@@H](CCC(=O)N2CCCC2)NC(=O)[C@H](CC(C)C)NC(=O)[C@@H](CC(C)C)NC1=O | -1.41 |
| CCOC(=O)[C@@H]1CSCC(=O)N[C@H](CC)C(=O)N(C)[C@@H](C)C(=O)N[C@@H](CC(C)C)C(=O)N2CCC[C@H]2C(=O)N(CC)CC(=O)N[C@H](CC(C)C)C(=O)N(C)[C@H](C)C(=O)N[C@@H](CC(C)C)C(=O)N1C | -0.527 |
| CC(C)C[C@@H]1NC(=O)[C@H](CC(C)C)NC(=O)[C@@H](CC(C)C)NC(=O)[C@H](C(C)C)NC(=O)[C@H](C(C)C)NC(=O)[C@H](Cc2cscn2)NC(=O)[C@H](C)NC1=O | -0.678 |

Study 5
Compound: NC(N)=NC(=O)c1nc(Cl)c(N2CCCCCC2)nc1N
Effect on: β-arrestin recruitment
Action: agonist
Technique: PRESTO-Tango
Tested at: 10 µM
Baseline: untreated
| target | fold over basal |
| --- | --- |
| FFAR3 (Homo sapiens, UniProt O14843) | 0.65 fold |
| TAAR1 (Homo sapiens, UniProt Q96RJ0) | 0.6 fold |
| Probable G-protein coupled receptor 82 (GPR82, Homo sapiens, UniProt Q96P67) | 0.93 |
| Mas-related G-protein coupled receptor member E (MRGPRE, Homo sapiens, UniProt Q86SM8) | 0.95 |
| BDKRB2 (Homo sapiens, UniProt P30411) | 1.07 |
| AGTR1 (Homo sapiens, UniProt P30556) | 0.88 |
| CXCR2 (Homo sapiens, UniProt P25025) | 1.15 |
| Adhesion G protein-coupled receptor F4 (ADGRF4, Homo sapiens, UniProt Q8IZF3) | 1.01 |
